Experimental data collected from several papers.
Each line is one published result; not all experiments were run side by side. Numbers after ± are the reported error.
UniProt P49146, sequence (whole entry, looked up): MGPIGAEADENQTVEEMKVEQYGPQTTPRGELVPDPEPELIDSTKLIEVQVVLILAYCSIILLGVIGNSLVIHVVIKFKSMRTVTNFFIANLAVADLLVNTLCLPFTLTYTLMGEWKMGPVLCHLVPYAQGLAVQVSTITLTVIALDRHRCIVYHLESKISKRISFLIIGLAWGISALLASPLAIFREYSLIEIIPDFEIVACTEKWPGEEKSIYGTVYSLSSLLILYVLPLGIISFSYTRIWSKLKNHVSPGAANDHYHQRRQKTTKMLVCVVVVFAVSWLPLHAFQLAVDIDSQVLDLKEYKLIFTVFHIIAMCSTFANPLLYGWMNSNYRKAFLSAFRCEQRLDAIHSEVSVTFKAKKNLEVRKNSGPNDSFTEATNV
UniProt Q13011, sequence (whole entry, looked up): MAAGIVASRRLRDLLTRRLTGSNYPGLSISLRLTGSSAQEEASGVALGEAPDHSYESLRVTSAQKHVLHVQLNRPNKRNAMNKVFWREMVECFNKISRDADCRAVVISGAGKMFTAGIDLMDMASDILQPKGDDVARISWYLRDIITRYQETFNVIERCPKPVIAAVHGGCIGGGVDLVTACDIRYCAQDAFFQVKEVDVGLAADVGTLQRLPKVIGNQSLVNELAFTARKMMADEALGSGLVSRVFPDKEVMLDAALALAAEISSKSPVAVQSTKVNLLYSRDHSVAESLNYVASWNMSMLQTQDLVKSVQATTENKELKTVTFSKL

Compound = COc1c(C)c2c(c(O)c1C/C=C(\C)CCC(=O)O)C(=O)OC2; tested on = Ovarian cancer cell lines; test = cell proliferation; endpoint = IC50; result = 490 nM
Compound = Nc1ncc(-c2nc(N3CCOCC3)nc(N3CCOCC3)n2)c(C(F)F)n1; tested on = SHP77; conditions = 72 h; endpoint = GI50; result = 1770 nM
Compound = COc1c(CCC[P+](c2ccccc2)(c2ccccc2)c2ccccc2)cc2c(c1OC)OCO2.[I-]; tested on = SR; test = SRB; endpoint = GI50; result = -5.97 log M
Compound = COc1ccc2c(c1)[nH]c1c(C)nccc12; tested on = DU-145; test = bisulfite pyrosequencing, refers to: RASSF1A promoter CpG site 10; conditions = 10 µM, 16 h; endpoint = CpG methylation; result = 83.6%
Compound = COc1cc(CCC[P+](c2ccccc2)(c2ccccc2)c2ccccc2)c(OC)c2c1OCO2.[I-]; tested on = IGROV-1; test = SRB; endpoint = TGI; result = -4.93 log M
Compound = CC[C@H](C)[C@H](NC(=O)[C@H](Cc1ccccc1)NC(=O)[C@H](CCC(=O)O)NC(=O)[C@H](CCCNC(=N)N)NC(=O)[C@H](C)NC(=O)[C@H](C)NC(=O)[C@H](CCC(N)=O)NC(=O)[C@H](CCC(=O)O)NC(=O)[C@H](CCC(=O)O)NC(=O)[C@H](CC(C)C)NC(=O)[C@H](Cc1ccc(O)cc1)NC(=O)[C@H](CO)NC(=O)[C@H](CO)NC(=O)[C@@H](NC(=O)[C@H](CC(=O)O)NC(=O)[C@H](CO)NC(=O)[C@@H](NC(=O)[C@H](Cc1ccccc1)NC(=O)[C@@H](NC(=O)CNC(=O)[C@H](CCC(=O)O)NC(=O)[C@H](C)NC(=O)CCc1c[nH]cn1)[C@@H](C)O)[C@@H](C)O)C(C)C)C(=O)N[C@@H](C)C(=O)N[C@@H](Cc1c[nH]c2ccccc12)C(=O)N[C@@H](CC(C)C)C(=O)N[C@H](C(=O)N[C@@H](CCCNC(=N)N)C(=O)NCC(=O)N[C@@H](CCCNC(=N)N)C(=O)N[C@@H](CCCCNC(=O)COCCOCCNC(=O)COCCOCCNC(=O)CC[C@H](NC(=O)CCCCCCCCCCCCCCCCC(=O)O)C(=O)O)C(=O)NCC(=O)NCC(=O)N[C@@H](CO)C(=O)N[C@@H](CCCCNc1c(NCCCCCN(O)C(=O)CCC(=O)NCCCCCN(O)C(=O)CCC(=O)NCCCCCN(O)C(C)=O)c(=O)c1=O)C(=O)O)C(C)C [zirconium-89 labelled]; system = rat, bone marrow; conditions = sc, 3 nmol/kg, 4 h, ex vivo; endpoint = tissue uptake; result = 0.97 %ID/g
Compound = Nc1ncnc2c1ncn2[C@@H]1O[C@@H]2COP(=O)(O)O[C@H]3[C@@H](O)[C@H](n4cnc5c(=O)[nH]cnc54)O[C@@H]3COP(=O)(O)O[C@H]2[C@H]1O; tested on = HFF-1; test = RNA sequencing, refers to: Reactome Innate Immune System; conditions = upregulated pathways; how to read = relative to: mock; endpoint = fold enrichment; result = 1.9
Compound = O=S(=O)(c1ccc(O)cc1)c1ccc(O)cc1; tested on = HepG2 spheroids; test = Hoechst flow cytometry; conditions = 0.1 µM, 24 h; endpoint = G1 phase cells; result = 69.7 ± 6.74%
Compound = C/C=C(/C)C(=O)O[C@H]1C(C)=C2[C@H]([C@@H]1OC(=O)CCCCCCC)[C@@](C)(OC(C)=O)C[C@H](OC(=O)CCC)[C@@]1(O)[C@H]2OC(=O)[C@@]1(C)O; tested on = HEK-293T; test = RNA-seq GSEA, refers to: Hallmark apoptosis; conditions = 500 nM, 6 h; how to read = direction not given; endpoint = normalized enrichment score; result = 1.73
Compound = C[C@H]1CN(c2n[nH]c3nc(N[C@H]4CC[C@H](NS(=O)(=O)CCC(F)(F)F)CC4)ncc23)CCO1; tested on = Delta(3,5)-Delta(2,4)-dienoyl-CoA isomerase, mitochondrial (Homo sapiens, UniProt Q13011); test = Kinobeads competition, refers to: ECH1; conditions = 20 µM, unit not given; how to read = relative to: vehicle; endpoint = remaining binding; result = 1.12
Compound = CC[C@H](C)[C@@H]1NC(=O)[C@@H]2CCCN2C(=O)[C@H](CC(C)C)NC(=O)[C@H](CC(C)C)NC(=O)CNC(=O)[C@@H](NC(=O)[C@@H](NC(=O)[C@H](CC(=O)O)NC(=O)CNC(=O)[C@@H](NC(=O)[C@H](C)NC(=O)CNC(=O)[C@H](CCCCN)NC(=O)[C@H](CC(C)C)NC(=O)[C@H](CC(C)C)NC(=O)[C@H](CCCCN)NC(=O)CNC(=O)[C@@H](NC(=O)[C@@H](N)CC(C)C)C(C)C)C(C)C)C(C)C)CSSC[C@@H](C(=O)O)NC1=O; test = RNA-seq, refers to: Sphk1; system = mouse, traumatic brain injury model, frontal cortex and hippocampus; conditions = dose not given; how to read = relative to: TBI alone; endpoint = log2 fold change; result = -1.57
Compound = COc1cc(Nc2ncc(F)c(Nc3ccc4c(n3)NC(=O)C(C)(C)O4)n2)cc(OC)c1OC; tested on = Neuropeptide Y receptor type 2 (NPY2R, Homo sapiens, UniProt P49146); endpoint = IC50; result = > 10000 nM

Some of these lines once more:
Compound = COc1ccc2c(c1)[nH]c1c(C)nccc12; tested on = DU-145; test = bisulfite pyrosequencing, refers to: RASSF1A promoter CpG site 10; conditions = 10 µM, 16 h; endpoint = CpG methylation; result = 83.6%
